Assay results from different studies.
Every numbered part comes from another study and shows a few of its results, in no order.
UniProt P53779, sequence (whole entry, looked up): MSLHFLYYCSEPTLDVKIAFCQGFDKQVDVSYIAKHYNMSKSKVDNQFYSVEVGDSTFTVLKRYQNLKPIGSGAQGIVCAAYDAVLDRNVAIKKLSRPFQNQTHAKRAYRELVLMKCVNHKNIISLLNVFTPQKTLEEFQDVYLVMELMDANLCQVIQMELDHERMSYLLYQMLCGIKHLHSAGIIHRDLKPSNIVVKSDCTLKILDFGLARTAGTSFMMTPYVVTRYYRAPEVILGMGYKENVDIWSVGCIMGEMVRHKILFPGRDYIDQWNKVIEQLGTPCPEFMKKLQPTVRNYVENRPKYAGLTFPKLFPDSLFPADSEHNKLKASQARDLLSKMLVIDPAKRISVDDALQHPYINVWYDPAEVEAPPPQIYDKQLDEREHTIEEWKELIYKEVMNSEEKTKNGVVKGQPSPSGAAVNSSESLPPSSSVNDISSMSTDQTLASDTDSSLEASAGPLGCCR
UniProt Q96NX5, sequence (whole entry, looked up): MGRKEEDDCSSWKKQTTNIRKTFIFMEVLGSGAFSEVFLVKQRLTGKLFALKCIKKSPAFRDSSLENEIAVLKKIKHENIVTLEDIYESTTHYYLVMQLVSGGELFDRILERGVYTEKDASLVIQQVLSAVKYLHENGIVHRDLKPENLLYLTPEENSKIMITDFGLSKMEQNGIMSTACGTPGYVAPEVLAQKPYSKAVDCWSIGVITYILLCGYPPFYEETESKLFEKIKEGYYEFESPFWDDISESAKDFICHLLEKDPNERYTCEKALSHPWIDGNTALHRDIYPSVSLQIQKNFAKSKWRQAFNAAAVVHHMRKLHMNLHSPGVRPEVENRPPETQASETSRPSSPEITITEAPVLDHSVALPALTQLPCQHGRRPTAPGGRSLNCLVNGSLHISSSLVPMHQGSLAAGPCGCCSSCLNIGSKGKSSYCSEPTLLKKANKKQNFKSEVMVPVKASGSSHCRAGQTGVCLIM
UniProt P50613, sequence (whole entry, looked up): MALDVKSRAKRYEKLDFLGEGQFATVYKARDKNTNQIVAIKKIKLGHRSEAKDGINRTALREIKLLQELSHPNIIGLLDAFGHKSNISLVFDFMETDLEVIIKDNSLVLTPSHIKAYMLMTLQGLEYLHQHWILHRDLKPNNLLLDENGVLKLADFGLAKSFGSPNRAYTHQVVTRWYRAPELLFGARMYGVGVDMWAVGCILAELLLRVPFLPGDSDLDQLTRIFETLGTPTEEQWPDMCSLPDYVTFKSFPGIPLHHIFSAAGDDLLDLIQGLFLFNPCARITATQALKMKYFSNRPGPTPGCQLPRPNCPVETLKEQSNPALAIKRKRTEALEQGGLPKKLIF
UniProt Q16513, sequence (whole entry, looked up): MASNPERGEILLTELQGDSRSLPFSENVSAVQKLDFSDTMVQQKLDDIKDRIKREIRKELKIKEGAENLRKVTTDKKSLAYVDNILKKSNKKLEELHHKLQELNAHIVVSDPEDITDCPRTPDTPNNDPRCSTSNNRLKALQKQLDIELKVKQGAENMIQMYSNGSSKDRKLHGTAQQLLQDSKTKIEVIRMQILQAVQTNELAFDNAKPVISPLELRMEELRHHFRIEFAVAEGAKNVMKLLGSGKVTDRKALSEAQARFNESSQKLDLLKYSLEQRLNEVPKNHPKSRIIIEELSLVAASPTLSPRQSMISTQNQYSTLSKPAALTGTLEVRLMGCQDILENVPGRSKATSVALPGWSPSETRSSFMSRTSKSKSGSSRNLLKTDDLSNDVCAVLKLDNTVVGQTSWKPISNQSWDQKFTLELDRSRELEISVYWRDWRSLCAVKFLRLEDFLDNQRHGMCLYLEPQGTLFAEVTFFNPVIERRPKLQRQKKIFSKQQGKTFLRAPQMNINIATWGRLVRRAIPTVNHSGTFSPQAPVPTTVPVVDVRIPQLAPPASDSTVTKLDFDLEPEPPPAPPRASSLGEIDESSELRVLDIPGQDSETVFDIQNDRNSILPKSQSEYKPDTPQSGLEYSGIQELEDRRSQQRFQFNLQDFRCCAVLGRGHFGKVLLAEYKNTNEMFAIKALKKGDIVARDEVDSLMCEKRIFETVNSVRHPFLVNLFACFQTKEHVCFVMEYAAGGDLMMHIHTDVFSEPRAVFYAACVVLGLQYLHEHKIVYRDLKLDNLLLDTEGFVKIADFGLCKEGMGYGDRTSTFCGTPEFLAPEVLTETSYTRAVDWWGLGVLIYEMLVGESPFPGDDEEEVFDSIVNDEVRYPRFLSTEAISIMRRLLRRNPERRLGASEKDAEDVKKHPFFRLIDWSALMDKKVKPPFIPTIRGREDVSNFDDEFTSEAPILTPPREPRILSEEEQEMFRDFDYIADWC
UniProt P11802, sequence (whole entry, looked up): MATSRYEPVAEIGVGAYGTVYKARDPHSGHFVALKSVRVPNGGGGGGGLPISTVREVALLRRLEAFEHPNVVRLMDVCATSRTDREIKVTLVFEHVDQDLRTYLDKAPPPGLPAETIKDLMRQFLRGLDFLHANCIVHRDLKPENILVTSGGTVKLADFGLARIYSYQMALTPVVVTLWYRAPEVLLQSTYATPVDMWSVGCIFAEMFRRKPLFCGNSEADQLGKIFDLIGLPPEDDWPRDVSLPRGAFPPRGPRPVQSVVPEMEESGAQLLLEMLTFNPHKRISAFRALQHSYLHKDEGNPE
UniProt Q99558, sequence (whole entry, looked up): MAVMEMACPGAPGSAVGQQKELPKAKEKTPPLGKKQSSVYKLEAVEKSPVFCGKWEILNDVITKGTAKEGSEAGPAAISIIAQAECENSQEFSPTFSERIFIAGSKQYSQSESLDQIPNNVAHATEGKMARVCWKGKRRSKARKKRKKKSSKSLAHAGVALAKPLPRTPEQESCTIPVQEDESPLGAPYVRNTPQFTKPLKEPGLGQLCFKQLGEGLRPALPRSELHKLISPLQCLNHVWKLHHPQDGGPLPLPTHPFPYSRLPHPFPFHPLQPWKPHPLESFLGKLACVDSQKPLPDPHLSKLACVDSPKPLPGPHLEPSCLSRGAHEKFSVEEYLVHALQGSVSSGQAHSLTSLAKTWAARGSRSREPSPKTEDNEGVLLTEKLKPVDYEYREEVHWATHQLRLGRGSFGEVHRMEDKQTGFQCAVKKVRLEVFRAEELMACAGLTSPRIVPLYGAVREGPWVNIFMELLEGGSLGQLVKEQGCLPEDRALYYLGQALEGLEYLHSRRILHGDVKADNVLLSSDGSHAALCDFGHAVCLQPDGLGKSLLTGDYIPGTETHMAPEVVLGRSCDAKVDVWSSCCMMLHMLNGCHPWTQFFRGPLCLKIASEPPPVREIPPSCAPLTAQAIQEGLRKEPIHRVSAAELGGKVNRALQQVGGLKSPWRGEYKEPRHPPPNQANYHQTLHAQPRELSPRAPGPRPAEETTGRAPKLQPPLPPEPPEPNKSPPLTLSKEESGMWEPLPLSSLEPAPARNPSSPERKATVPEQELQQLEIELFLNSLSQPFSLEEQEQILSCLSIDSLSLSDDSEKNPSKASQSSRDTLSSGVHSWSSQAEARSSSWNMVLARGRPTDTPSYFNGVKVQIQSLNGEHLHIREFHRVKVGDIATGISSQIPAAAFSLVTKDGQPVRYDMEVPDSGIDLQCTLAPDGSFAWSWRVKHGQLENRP
UniProt Q9UKI8, sequence (whole entry, looked up): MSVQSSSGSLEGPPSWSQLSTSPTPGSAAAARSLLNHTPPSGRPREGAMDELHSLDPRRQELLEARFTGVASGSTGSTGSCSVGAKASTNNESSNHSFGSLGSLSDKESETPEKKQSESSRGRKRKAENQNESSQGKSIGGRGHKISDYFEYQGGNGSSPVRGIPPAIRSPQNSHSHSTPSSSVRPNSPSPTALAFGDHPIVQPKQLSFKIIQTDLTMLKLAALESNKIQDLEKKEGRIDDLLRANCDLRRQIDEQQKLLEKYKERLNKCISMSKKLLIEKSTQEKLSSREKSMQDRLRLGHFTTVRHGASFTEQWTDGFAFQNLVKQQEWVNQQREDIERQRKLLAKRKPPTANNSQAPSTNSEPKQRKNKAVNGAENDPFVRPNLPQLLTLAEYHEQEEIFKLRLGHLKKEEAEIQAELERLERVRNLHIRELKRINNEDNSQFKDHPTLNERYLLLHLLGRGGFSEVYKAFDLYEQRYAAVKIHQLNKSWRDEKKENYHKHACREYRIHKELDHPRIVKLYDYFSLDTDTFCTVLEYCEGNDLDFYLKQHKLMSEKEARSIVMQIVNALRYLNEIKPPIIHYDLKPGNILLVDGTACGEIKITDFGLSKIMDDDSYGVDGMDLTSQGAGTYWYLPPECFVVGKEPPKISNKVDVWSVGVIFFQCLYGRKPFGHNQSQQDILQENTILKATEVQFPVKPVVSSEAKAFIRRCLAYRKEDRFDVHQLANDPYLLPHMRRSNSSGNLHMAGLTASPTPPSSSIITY
UniProt P19784, sequence (whole entry, looked up): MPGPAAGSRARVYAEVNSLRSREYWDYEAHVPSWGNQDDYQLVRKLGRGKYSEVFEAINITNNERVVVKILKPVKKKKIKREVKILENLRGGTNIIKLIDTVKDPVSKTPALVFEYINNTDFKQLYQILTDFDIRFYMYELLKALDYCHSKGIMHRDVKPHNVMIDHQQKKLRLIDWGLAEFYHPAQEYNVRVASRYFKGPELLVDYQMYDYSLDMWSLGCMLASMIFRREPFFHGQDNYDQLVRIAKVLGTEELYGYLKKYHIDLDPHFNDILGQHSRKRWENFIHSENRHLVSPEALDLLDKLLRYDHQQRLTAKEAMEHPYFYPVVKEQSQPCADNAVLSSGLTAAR

Set 1 — Structure (SMILES): Oc1ccc(Nc2nc(-c3ccc(Cl)cc3)cs2)cc1; effect on: enzyme activity; mode: inhibitor; concentration: 0.5 µM; reference: control
| target | remaining activity |
| --- | --- |
| HIPK3 (Homo sapiens, UniProt Q9H422) | 109% |
| PTK2B (Homo sapiens, UniProt Q14289) | 100% |
| DMPK (Homo sapiens, UniProt Q09013) | 102% |
| PRKD1 (Homo sapiens, UniProt Q15139) | 96.8% |
| Aurora kinase A (AURKA, Homo sapiens, UniProt O14965) | 89.4% |
| GRK5 (Homo sapiens, UniProt P34947) | 92% |
| Cyclin-dependent kinase 2, with cyclin A (CDK2, Homo sapiens, UniProt P24941) | 98.6% |
| CAMK1D (Homo sapiens, UniProt Q8IU85) | 103% |
| ROS1 (Homo sapiens, UniProt P08922) | 96.9% |
| EGFR (Homo sapiens, UniProt P00533) | 95.3% |
| PKN2 (Homo sapiens, UniProt Q16513) | 93.8% |
| BRSK1 (Homo sapiens, UniProt Q8TDC3) | 102% |
| DYRK4 (Homo sapiens, UniProt Q9NR20) | 95.9% |
| ROCK2 (Homo sapiens, UniProt O75116) | 99.4% |
| CSNK2A2 (Homo sapiens, UniProt P19784) | 96.9% |
| CDK7 (Homo sapiens, UniProt P50613) | 96.3% |
| RET (Homo sapiens, UniProt P07949) | 99% |
| SLK (Homo sapiens, UniProt Q9H2G2) | 110% |
| NTRK3 (Homo sapiens, UniProt Q16288) | 102% |
| MAPK10 (Homo sapiens, UniProt P53779) | 101% |
| MAP3K2 (Homo sapiens, UniProt Q9Y2U5) | 92.1% |
| NEK9 (Homo sapiens, UniProt Q8TD19) | 90.6% |
| CAMK1G (Homo sapiens, UniProt Q96NX5) | 106% |
| MAP3K8 (Homo sapiens, UniProt P41279) | 94.9% |

Set 2 — effect on: kinase activity; mode: inhibitor; concentration: 1 µM
SMILES: CC(C)S(=O)(=O)c1ccc2nccc(Nc3ccc4sc(C5CCCC5)nc4c3)c2c1.Cl
| target | remaining activity [%] |
| --- | --- |
| TGFBR2 (Homo sapiens, UniProt P37173) | 114 |
| STK17A (Homo sapiens, UniProt Q9UEE5) | 109 |
| PIP4K2A (Homo sapiens, UniProt P48426) | 97 |
| CHUK (Homo sapiens, UniProt O15111) | 119 |
| TBK1 (Homo sapiens, UniProt Q9UHD2) | 97 |
| FGR (Homo sapiens, UniProt P09769) | 90 |
| ROCK1 (Homo sapiens, UniProt Q13464) | 99 |
| HIPK2 (Homo sapiens, UniProt Q9H2X6) | 98 |
| CAMK1G (Homo sapiens, UniProt Q96NX5) | 104 |

Set 3 — host: mouse; medium: microsomes or S9; concentration: 2 µM; time: 0.5 h
| Structure (SMILES) | remaining compound [%] |
| --- | --- |
| COc1ccc(/C=C/c2nc(-c3cccnc3)no2)cc1OC | 35.3 |
| CC(O)CN(Cc1cc(F)cc(Br)c1)C(C)C (centres unmarked) | 1.23 |
| COc1cc(OC)c(C(=O)Nc2sc(C(C)C)cc2C(=O)OC(C)C)cc1OC | 78.5 |
| COc1cc(=O)n(C)cc1C(=O)NCCCn1ncccc1=O | > 99 |
| O=c1[nH]c2cc(S(=O)(=O)N3CC[C@H]4[C@H](C3)OCc3cnnn34)ccc2o1 | 94 |
| Cc1ccc(-c2nc3scc(CCNS(=O)(=O)c4ccc(Br)cc4)n3n2)cc1 | 1.09 |
| CCOc1ccc(C2=NNC(c3cccnc3)=Nc3ccc(CC)cc32)cc1OCC | 11.7 |
| Cc1c(CC(=O)N2CCN(C(=O)C3COc4ccccc4O3)CC2)c(=O)oc2cc(O)c(Cl)cc12 (centres unmarked) | 43.8 |
| O=C(NOCc1ccccc1)c1ccc2c(c1)NC(CCNS(=O)(=O)c1ccc(F)cc1)C(=O)N2 (centres unmarked) | 60.8 |
| C/C(=C\c1c[nH]c(-c2ccccc2)n1)c1cnccn1 | 13.3 |
| Cc1ccc(S(=O)(=O)CCc2noc(C(=O)NCCc3ccc(S(N)(=O)=O)cc3)n2)cc1 | 56.2 |
| Fc1ccc(-c2ccnc3nc(-c4ccncc4)nn23)cc1 | 42.6 |
| O=C(C1=COCCO1)N(CCn1cccn1)c1nc2c(Cl)cccc2s1 | 24.8 |
| OCCCc1cn(-c2ccccc2)c2ccccc12 | 4.93 |
| CC1=C(C(=O)OC(C)C)C(c2ccc(F)cc2)N2N=CNC2=N1 (centres unmarked) | 14.5 |
| COc1cc(=O)[nH]cc1C(=O)N1CCCC1c1cn(C)nc1C (centres unmarked) | 59.8 |

Set 4 — effect on: cell-free assay; method: competition with immobilised ligand; concentration: 0.1 µM
Compound: Cn1cc(Cl)c2c(Oc3c(F)cc(Nc4cc(Cl)nc(N)n4)cc3F)ccnc21
| target | remaining binding [%] |
| --- | --- |
| Ribosomal protein S6 kinase alpha-6, N-terminal kinase domain (RPS6KA6, Homo sapiens, UniProt Q9UK32) | 72 |
| VRK2 (Homo sapiens, UniProt Q86Y07) | 81 |
| TLK1 (Homo sapiens, UniProt Q9UKI8) | 100 |
| MARK4 (Homo sapiens, UniProt Q96L34) | 100 |
| MAP3K14 (Homo sapiens, UniProt Q99558) | 100 |
| DYRK1A (Homo sapiens, UniProt Q13627) | 98 |
| Ribosomal protein S6 kinase alpha-4, N-terminal kinase domain (RPS6KA4, Homo sapiens, UniProt O75676) | 87 |
| PIM3 (Homo sapiens, UniProt Q86V86) | 100 |
| WNK2 (Homo sapiens, UniProt Q9Y3S1) | 88 |
| PRPF4B (Homo sapiens, UniProt Q13523) | 81 |
| Ribosomal protein S6 kinase alpha-3, N-terminal kinase domain (RPS6KA3, Homo sapiens, UniProt P51812) | 71 |
| MKNK2 (Homo sapiens, UniProt Q9HBH9) | 90 |
| EPHB1 (Homo sapiens, UniProt P54762) | 96 |
| PIK3CA (Homo sapiens, UniProt P42336, H1047Y) | 62 |
| MAPK10 (Homo sapiens, UniProt P53779) | 80 |
| ACVR2A (Homo sapiens, UniProt P27037) | 87 |
| Tyrosine-protein kinase ABL1, non-phosphorylated (ABL1, Homo sapiens, UniProt P00519) | 89 |
| TGFBR1 (Homo sapiens, UniProt P36897) | 93 |
| TAOK2 (Homo sapiens, UniProt Q9UL54) | 100 |
| MAP3K1 (Homo sapiens, UniProt Q13233) | 76 |
| MAP2K1 (Homo sapiens, UniProt Q02750) | 90 |
| CDK11B (Homo sapiens, UniProt P21127) | 100 |
| KIT (Homo sapiens, UniProt P10721, V559D) | 96 |
| CDK4 (Homo sapiens, UniProt P11802) | 85 |
| NEK11 (Homo sapiens, UniProt Q8NG66) | 85 |

Repeated from above (set 4):
| target | remaining binding [%] |
| --- | --- |
| KIT (Homo sapiens, UniProt P10721, V559D) | 96 |
| MARK4 (Homo sapiens, UniProt Q96L34) | 100 |
| MKNK2 (Homo sapiens, UniProt Q9HBH9) | 90 |
| Ribosomal protein S6 kinase alpha-3, N-terminal kinase domain (RPS6KA3, Homo sapiens, UniProt P51812) | 71 |
